# Experimental data collected from several papers.
# Parts stem from different laboratories: compare values within a part only. Positions count from the first letter of the parent shown.

# Series 1
# Target: Sal-like protein 4, full length isoform B (SALL4, Homo sapiens, UniProt Q9UJQ4-2, residues 1-616)
# Technique: universal PBM
# Molecule type: double-stranded DNA, one strand shown
# Sample: in vitro
# Concentration: not given
# Notes: 8-mer, flanks averaged, mean of replicates
# Reading: higher = stronger binding
# Construct (chain): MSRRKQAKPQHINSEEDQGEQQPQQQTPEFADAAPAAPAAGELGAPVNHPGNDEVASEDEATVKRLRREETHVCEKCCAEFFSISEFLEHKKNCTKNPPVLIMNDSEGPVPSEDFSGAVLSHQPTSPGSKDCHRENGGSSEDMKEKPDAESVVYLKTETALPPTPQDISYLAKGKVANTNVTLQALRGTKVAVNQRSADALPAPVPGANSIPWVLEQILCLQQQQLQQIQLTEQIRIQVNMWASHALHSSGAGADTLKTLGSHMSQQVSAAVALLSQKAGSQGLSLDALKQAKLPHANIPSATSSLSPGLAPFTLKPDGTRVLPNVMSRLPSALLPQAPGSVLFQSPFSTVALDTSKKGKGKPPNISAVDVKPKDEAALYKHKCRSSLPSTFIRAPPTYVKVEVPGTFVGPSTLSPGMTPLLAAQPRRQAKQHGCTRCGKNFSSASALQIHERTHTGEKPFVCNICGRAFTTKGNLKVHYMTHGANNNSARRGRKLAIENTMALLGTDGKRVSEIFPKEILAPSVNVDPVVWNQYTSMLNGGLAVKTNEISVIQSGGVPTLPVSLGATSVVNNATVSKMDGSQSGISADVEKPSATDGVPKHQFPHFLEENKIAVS
Strand,E-score
AATGTTTA,0.273
GGGGATTA,0.0261
GGGGAACC,-0.278
GCATAGCC,-0.0993
CCGAACCA,-0.0982
ATATCTCG,0.311
AGGCGCTC,-0.38
CACTTAGG,-0.00526
CTTCCAGA,-0.149
GTTTCTAA,0.114
GGTGCACA,-0.171
TAACGTTA,0.248
ACTAAATA,0.335
TCTAGCCA,0.0741

# Series 2
# Target: RING finger protein unkempt homolog, zinc fingers 1-6, GST-SBP tag (UNK, Homo sapiens, UniProt Q9C0B0, residues 30-357)
# UniProt Q9C0B0, sequence (30-357, looked up): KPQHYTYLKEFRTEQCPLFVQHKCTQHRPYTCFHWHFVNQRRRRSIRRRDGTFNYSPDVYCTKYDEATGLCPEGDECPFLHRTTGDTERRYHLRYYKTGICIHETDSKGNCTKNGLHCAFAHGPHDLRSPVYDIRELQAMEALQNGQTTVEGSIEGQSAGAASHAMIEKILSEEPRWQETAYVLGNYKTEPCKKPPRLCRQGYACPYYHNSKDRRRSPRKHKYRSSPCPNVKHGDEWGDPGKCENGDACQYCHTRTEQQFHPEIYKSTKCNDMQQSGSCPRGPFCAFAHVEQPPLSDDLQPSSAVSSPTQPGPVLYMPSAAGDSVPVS
# Technique: RNA Bind-n-Seq
# Molecule type: RNA
# Sample: in vitro
# Concentration: not given
# Notes: RNA with constant flanks, human-mouse chimeric sites, ends assumed
# Relative to: input RNA pool
# Reading: higher = stronger binding
# All sequences stand within: GGGAGUUCUACAGUCCGACGAUC … CAACAGAGGAUUGAGCAUCA
Strand,bound/input enrichment [ratio]
AGUGUGCAGGAAUUCAUGACCUUUACAAGUCAACUGAUUGUGGAACGCUCGGGGAAAGGCAGCAGAGCUUCUGUCAAAGAACAAGAGUAUCUUUGCCACGUCUACGUCCGGAAUGAUAGU,0.137
CUGGCACUCUAUCAGAUAUAUUAAUUUUUUAAUGUAGAUGUAAUUUUAAAAAUGAAUGGCUACUUUACACGUUUAACUAGGCUCUUACUAUAUAUGUGUACAUAUGUAUAUAUAUAUAUA,3.08
GGAAGUACAAUGAUGGAGAUUGAUGGUGACAAAGGCAAGCAGGGCGGGCCCACCUACUACAUAGACACUAAUGCUCUCCGCGUGCCCAGGGAGAACAUGGAGGCCAUUUCACCUCUAAAG,0.768
UACUGCUGCUUUCAACUUAAAUCACUGAGGCAUCUCUACUGUUCUGUGAGCAUCAGGACUGUAGCGCUGUGUCACCACAUGAGAGUUCAGAAGCAGCCUUUCUGUGGAGGGUGGGAAUGA,0.11
CUGAGGAUACCACUGAAGAGACCUUAAAAGAAUCAUUUGAGGGCUCUGUUCGUGCAAGAAUAGUCACUGAUCGGGAAACUGGUUCUUUCCAAAGGGUUUGGUUUUGUGACUUUAAUAGUG,0.363
GUUGCCAGCUUCCGGUUCCGUUGGGCUCGGUUCUCUCCUGAGCUACGGUCCCUGGCACUCUCAAUCCGCCAUCCAACAAACAUGGAUGAUCAGGUAAAGUUUGUGGAGCCCAGCCGGCAG,0.14

# Series 3
# Target: RNA binding protein fox-1 homolog 2, RRM domain, GST-SBP tag (RBFOX2, Homo sapiens, UniProt O43251-10, residues 100-194)
# Technique: RNA Bind-n-Seq
# Molecule type: RNA
# Sample: in vitro
# Concentration: 365 nM
# Notes: natural RNA segment, single round, ends assumed
# Relative to: no-protein control
# Reading: higher = stronger binding
# All sequences stand within: GGGAGUUCUACAGUCCGACGAUC … UGGAAUUCUCGGGUGCCAA
# Construct (chain): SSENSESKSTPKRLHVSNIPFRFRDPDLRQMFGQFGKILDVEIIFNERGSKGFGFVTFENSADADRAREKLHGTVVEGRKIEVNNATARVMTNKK
Strand,RBNS enrichment (R)
CAAUGAAGGAAAUAAAAAAGUCUCUAUUUAAAUUCUUUUUUAAAUUUUCUUCAGUUGGUGUGUUUUUGGGAUGUCUUAUUUUUAGAUGGUUACACUGUUAGAACACUAUU,0.458
CAGAGCCCGGAGUUUGAAUCCCAGAGUCCUAAGUAUGAGCCCCGAAGCCCUGGCUGCCAUCCCAGGAGCCCUGGCUGUGAACCUGGGAGUCCUAGGUAUGAACCCAAAAG,1.18
AAAGUAUGGUCAUUGGUUGCAUAAUUUGAUUUGAGGCUUGUGGAGGAAAGGAACCAAGUGACUCUGAUGUUUACAAAGCACCUAUGAAACCCUGUACACACCUAGUUCAU,0.901
AGUUCUGGGUUCACUUAAUGGCUUUGUGAAUGUAAAUAAGGGGCAGGUCUUGGCCCUAGAGGAUUGAGAUGUUUUUCUAAAUCUUAGAACUAUUUUUGGAUAAAUUAUAU,1.27
GUAGUCAUGCACUUUGUAUUAAUAUAUUAGAAAUCUACAGAUCUGUUUUGUACUUUUUAUACUGUUGGAUACUUAUAAUCAAAACUUUACUCUAGGGUAUUGAAUAAAUU,0.574
UUGUGUGCAUACAUAUUCUACUGAUUAACUACUUUUGCAGUUUUAAUCCUGUAUUAUUUCUUCUACUUUGUUUUGUGUAAAAGGGGAAAAAAUAAAAAAAGCUGGAAUCU,0.735
UUUUCAUAAAUCCCCUUAUUAGAAAGUUCUUUUACAUAUAGGCCCCAAAAUUGUGAUUAUUAAAAAUAUAGUUAAUUGUGAUUAGCCUCCAGUGAAAAUAGGUUGAAAGC,0.942
ACAAGUUUCAGAGCAUGGAGACAUUCCUGCUGAAUCGCCUUCUCACCUCCUCGGCAAUUGCUCAUUCUAGGGUUGGGCAUCAUAGUUGGUCAGUCUUAAUUCCCAUGCCA,0.518
UCCUGAUUCUGUCCCGGGUUCUUUGCUACUUCCUUGAAAAUACUCUAGCUUCAUGCUGGGUCAAGGUGGUUUACCUGGAUGACCCCCCUCCCCCGCCCUCGCCCAUCCCA,0.581
UUCAGGACCAUCCCAGAAAGGGGUGAUAGCCCUGUUUAUCUCUCCAACCCAGUAUCUCAUGUGCCAAAGCCUUCCCCCAGGUAGACAGAGGGGACAUUGCCUGAGAGCUC,0.256
CACUACGCAACCCACUGCCCUGCCCUGCCCUGCCCUGGCGGGGACUCUGGUUCCCUCCUUGCCUUCUGCUUCUCUUCCAUCUGGUUGACAACACCUAAGGUGUUGUGACU,0.462
GGGUUUAAUUGCCCUAUUGCUCAAUGGUGUUCUUGCAUGGGGAUUCUCCAGUCCUACAGAUGAAAGCAAAGUAGGAAAUGAUCAUGGGCUUAUUGGGGCUUUUAGCAUCU,12.3

# Series 4
# Target: PABPC1L2, full length, GST fusion (mouse, UniProt A0ABA7IW68)
# Technique: RNAcompete
# Molecule type: RNA
# Sample: in vitro
# Concentration: 20 nM
# Notes: 7-mer, probes averaged, single round
# Relative to: mean of 7-mers
# Reading: higher = stronger binding
# Residues (chain): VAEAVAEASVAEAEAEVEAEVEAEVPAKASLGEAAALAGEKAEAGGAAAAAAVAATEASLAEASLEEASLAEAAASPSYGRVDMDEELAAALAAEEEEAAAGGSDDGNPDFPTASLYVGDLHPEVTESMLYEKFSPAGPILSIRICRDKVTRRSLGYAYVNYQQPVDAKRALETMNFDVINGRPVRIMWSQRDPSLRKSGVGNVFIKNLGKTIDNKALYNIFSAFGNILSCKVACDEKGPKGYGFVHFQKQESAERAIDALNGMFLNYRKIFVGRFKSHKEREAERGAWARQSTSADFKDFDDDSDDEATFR
Strand,7-mer Z-score
CCCGGUG,-0.128
GUCUAUG,-0.307
GGAUGGA,0.113
CGGCCUU,-0.316
GGAGCGG,0.323
GAAUUAA,0.0805
CGGCGUC,-0.229
UGUUCGG,-0.454
CAUGGUC,-0.217
GGCGCGA,-0.0301
UGGUAGA,0.00436
GGUAUUU,-0.271
GAAGCUA,0.0207
GCCGAAG,-0.202
CUCUGCC,-0.427
GAACGAC,0.00617
GACCAAU,-0.021

# Series 5
# Target: Prothrombin, mature alpha-thrombin (F2, Homo sapiens, UniProt P00734)
# Technique: aptamer microarray, sandwich
# Molecule type: DNA with 2'F-ANA
# Sample: in vitro
# Concentration: 200 nM
# Notes: whole 15-mer aptamer, many near background
# Together with: Cy3 exosite-II aptamer, 400 nM
# Reading: higher = stronger binding
# Strand: GGTTGGTGTGGTTGG
Modification,mean fluorescence intensity [a.u.]
2'F-ANA at 3 6 10 11 12 14 15,348
2'F-ANA at 1 7 8 12,499
2'F-ANA at 1 2 3 4 6 7 9 10 11 13 14,49.7
2'F-ANA at 4 6 7 9 10 11 13 14 15,90.4
2'F-ANA at 2 4 6 7 9 12,553
2'F-ANA at 2 3 4 5 8 9 11,85.2
2'F-ANA at 3 4 5 10 15,59.5
2'F-ANA at 1 3 5 7 8 10,52.4
2'F-ANA at 1 5 6 7 8 11 12 14,51.7
2'F-ANA at 1 2 3 4 6 7 8 9 10 11 14 15,52.6
2'F-ANA at 1 3 6 7 8 9,323
2'F-ANA at 1 2 5 7 9 13 14,45

# Series 6
# Target: Histone acetyltransferase KAT6A, both winged helices, GST fusion (KAT6A, Homo sapiens, UniProt Q92794, residues 1-181)
# Technique: protein binding microarray
# Molecule type: double-stranded DNA, one strand shown
# Sample: in vitro
# Concentration: not given
# Notes: 8-mer, flanks averaged, mean of 2 arrays, mostly near background
# Relative to: not given
# Reading: higher = stronger binding
# Construct (chain): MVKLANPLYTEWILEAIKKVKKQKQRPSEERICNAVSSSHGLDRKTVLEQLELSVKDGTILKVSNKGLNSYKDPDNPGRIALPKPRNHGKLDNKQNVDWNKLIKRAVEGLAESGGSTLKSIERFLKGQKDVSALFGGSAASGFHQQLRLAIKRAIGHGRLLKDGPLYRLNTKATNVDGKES
Strand,E-score
AGTTGGTC,-0.164
ATCTGTTG,-0.232
GCTAGCGA,0.0115
TAAGTATA,-0.00628
CATTTCGG,-0.0751
ATCGGCGC,0.3
GCCCTCGC,0.17
TGCTACAA,-0.192
AGGACCCA,-0.243
AAGTGGCC,-0.127
ATAAAAGC,0.0525
AGGACGCG,0.223
CGAATAAC,0.0344
ATGTTAAT,-0.0872
CTGACAAA,-0.134
AGGGAGGG,-0.209
CAAACGCC,-0.0174
CCCTGCTC,-0.252
CGTAGACC,0.0903
CCATTTTC,-0.0979
CACTTATG,-0.0872
ACTGGGTC,-0.194
CCTATGGC,-0.00995
ATACGCAG,0.0601
ACCTATTG,-0.187

# Series 7
# Target: CCNB1, cyclin fold, Cln2 fusion (human)
# Technique: yeast growth competition, sequencing
# Sample: yeast
# Notes: strong parent motif
# Relative to: not given
# Reading: higher = stronger binding
# Parent: PKN2 docking peptide (human); VSAVRKLDFSDTM
Variant,normalised enrichment score
K6G,0.71
R5M,2.69
F9L,0.826
L7D,-0.0431
K6P,-0.338
R5C,2.96
A3E,2
V4D,0.185
K6Q,2.83
K6W,1.28
R5A,1.56
R5K,2.42
R5F,0.649
D8G,0.424
V4A,1.14
